Measured values gathered from unrelated publications.
Every numbered part comes from another study and shows a few of its results, in no order. Positions count from the first letter of the parent shown.

Series 1 — target: CCND1, cyclin fold, Cln2 fusion (human); technique: yeast growth competition, sequencing; matrix: yeast; notes: weak parent motif; reference: not given; direction: higher = stronger binding; measurement: normalised enrichment score
Starting sequence: TICRR docking peptide (human); TKVRRNLFNQELL
R5A: 0.271
F8L: 0.522
E11A: 0.712
N6A: 0.226
L12A: 0.0599
N9A: 0.487
F8A: -0.258

Series 2 — technique: protein-binding microarray; molecule type: double-stranded DNA, one strand shown; matrix: in vitro; tested at: 940 nM top; notes: 60-bp whole probe; together with: salmon DNA 0.4 mg/ml; reference: random background probes; direction: higher = stronger binding; measurement: fitted relative affinity; all sequences stand within: GCCTAGCAC … GTCTTGATTCGCTTGACGCTGCTG
Target: Interferon regulatory factor 5, full length, phosphomimetic (IRF5, Homo sapiens, UniProt Q13568-2, residues 1-514, S451D/S453D/S456D/S462D)
TTTTTTTTATTTATAAATTAGTGCTAG: 0.163 z-score
TTAGGTTTGGGTTTCGGTTAGTGCTAG: 7.91 z-score
GACGGTATCCTAATCCTGACGTGCTAG: -0.245 z-score
GACGGACTGGACTATCGGGAAGTGCTA: -0.128 z-score
GACGGTATCGACTATAGGGACGTGCTA: 4.4 z-score
AATTTTTTGTATTTTTAGTGGTGCTAG: 0.938 z-score
GGGCTTTCCCAGCCTGGGGCTGTGCTA: -0.8 z-score
TTAGGTCTCCTTATCTTTTAGTGCTAG: 0.643 z-score
TTAGATTTCAGTTTCGATTAGTGCTAG: 8.98 z-score
TCACATCTCTGCTCCTTACTGTGCTAG: 1.23 z-score
GACGATATCTGTTTCGAGACGTGCTAG: 1.39 z-score
GACGTACTGCTTTTCCTGACGTGCTAG: 0.597 z-score
GACGGTTTCAACTATCGGGACGTGCTA: 2.5 z-score
TCAAATATATATATTATACTGTGCTAG: -0.011 z-score
GACGATTTCGGGTATCGCGACGTGCTA: 0.633 z-score
TCAGCCCTCGGTTTACAACTGTGCTAG: -0.269 z-score
TTAGAACTGGGGTTTAGATTAGTGCTA: 0.176 z-score
GACGATCTCTGACTGGAGACGTGCTAG: -0.305 z-score
TCAGCTCTGTTGCCTGGTACTGTGCTA: 0.208 z-score
GACGGTATCGAATATCGGGACGTGCTA: 2.77 z-score
GGCGATTCCAGTTTCGAGACGTGCTAG: 4.76 z-score
TTAGGACTGCTACTGTTTTAGTGCTAG: -0.365 z-score
CTAGGTATCGACACTGGGTTAGTGCTA: 4.04 z-score
TCAAATTTCCCTCTCCCACTGTGCTAG: 0.944 z-score
TTAGATTACAGACTGGATTAGTGCTAG: -0.411 z-score

Series 3 — technique: universal PBM; molecule type: double-stranded DNA, one strand shown; matrix: in vitro; tested at: 600 nM; direction: higher = stronger binding; measurement: E-score
Target: Sal-like protein 4, full length isoform A (SALL4, Homo sapiens, UniProt Q9UJQ4, residues 1-1053)
Sequence of UniProt Q9UJQ4 (whole entry, looked up): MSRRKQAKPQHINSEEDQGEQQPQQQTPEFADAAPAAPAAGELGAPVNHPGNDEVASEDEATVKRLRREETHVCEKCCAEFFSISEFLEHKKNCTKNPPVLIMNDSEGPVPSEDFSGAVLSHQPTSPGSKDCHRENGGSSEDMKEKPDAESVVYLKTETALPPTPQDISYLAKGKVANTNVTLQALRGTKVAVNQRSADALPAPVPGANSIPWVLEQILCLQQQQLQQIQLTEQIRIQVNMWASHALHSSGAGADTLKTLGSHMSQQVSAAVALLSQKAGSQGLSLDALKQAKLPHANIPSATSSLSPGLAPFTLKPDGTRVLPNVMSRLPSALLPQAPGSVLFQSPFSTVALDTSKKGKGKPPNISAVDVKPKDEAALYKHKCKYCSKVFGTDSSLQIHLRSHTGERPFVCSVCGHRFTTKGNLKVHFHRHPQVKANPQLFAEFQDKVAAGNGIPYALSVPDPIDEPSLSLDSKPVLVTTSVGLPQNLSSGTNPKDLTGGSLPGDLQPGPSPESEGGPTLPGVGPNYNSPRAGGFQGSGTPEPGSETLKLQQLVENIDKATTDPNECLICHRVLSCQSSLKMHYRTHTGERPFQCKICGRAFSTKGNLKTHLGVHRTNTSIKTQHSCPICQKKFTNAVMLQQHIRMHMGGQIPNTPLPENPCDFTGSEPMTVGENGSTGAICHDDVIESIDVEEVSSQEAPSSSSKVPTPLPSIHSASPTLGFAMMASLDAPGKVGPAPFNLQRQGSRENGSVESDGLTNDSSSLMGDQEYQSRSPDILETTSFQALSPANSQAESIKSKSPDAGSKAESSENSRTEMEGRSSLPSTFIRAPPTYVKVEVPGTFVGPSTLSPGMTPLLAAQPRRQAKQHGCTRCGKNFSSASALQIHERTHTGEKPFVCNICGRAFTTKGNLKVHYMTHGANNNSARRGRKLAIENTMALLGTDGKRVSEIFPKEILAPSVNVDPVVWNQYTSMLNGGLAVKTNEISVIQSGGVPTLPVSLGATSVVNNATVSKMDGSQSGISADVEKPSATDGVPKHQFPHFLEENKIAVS
Notes: 8-mer, flanks averaged, mean of replicates
CGGGATTC: -0.205
AATATAAG: 0.391
TAACCCGA: -0.139
ACCAGTTG: -0.0588
GCGGAGTA: -0.167
AGTCGTTA: 0.11
ACGACCAG: -0.11
CCTCCTAC: -0.227
TAAGATGA: 0.152
CATGGATC: -0.0306
AGTACCAT: 0.128
CATTTGAA: 0.147
ATGAACCA: 0.165
AGTACTAT: 0.143
AGTTTTCA: 0.186
ACCTTGTG: -0.0972
GAGTATTA: 0.308

Other studies, line by line
PhoQ, residues 284 288 289 292 302 303 NLCILV
fold induction (PhoP, residues 12 14 15 18 19 AQCLL (Escherichia coli, UniProt P23836); Sort-seq, measured: YFP reporter; E. coli; PhoQ-PhoP variant library, together with: 10 µM Mg2+; reference: high Mg2+ state, higher = stronger signaling): 0.368

For quick reference, copied from above (other studies, line by line):
PhoQ, residues 284 288 289 292 302 303 NLCILV
fold induction (PhoP, residues 12 14 15 18 19 AQCLL (Escherichia coli, UniProt P23836); Sort-seq, measured: YFP reporter; E. coli; PhoQ-PhoP variant library, together with: 10 µM Mg2+; reference: high Mg2+ state, higher = stronger signaling): 0.368
